Experimental data from different studies.
Compare with care: the assays were run in different laboratories. ± marks the error that the study gave.

Compound	tested on	assay	test system	conditions	how to read	measurement	value
CCOc1ccc(S(=O)(=O)NC(=O)Cc2ccc(I)cc2)cc1Br	THP1-Dual	NF-κB reporter gene		100 µM, 16 h, together with: ht-DNA transfection		inhibition	no effect
Cc1nn(C)c2c(C(C(=O)O)N3CC(OCCCCc4ccc5c(n4)NCCC5)C3)cccc12 (centres unmarked)	PAH PASMCs	Western blot, measured: PLK1, NEK2, p-β-catenin		concentration not given		protein level	decreased
Cc1ccccc1C(C(=O)NC1CCCCC1)N(C(=O)Cn1ccnc1C)c1cccc([125I])c1 (racemic)	HCT-116 IDH1 R132H/WT	cell uptake			reference: mutant over wild-type cells	uptake ratio	1.3 to 1.5 fold
CC(=NN=c1[nH]c2cc(F)c(F)cc2n1C)c1ccc(F)cn1	MCF7	cell migration area		concentration not given	reference: untreated	inhibition	~50%
CN(C)C(=O)Cn1cc(-c2ccc(-c3cncc4ccncc34)cc2)cn1	HL-60	flow cytometry		concentration not given, 24 h		CD33 surface level	no effect
Nc1ccc2cc(N)ncc2c1	LX-2	qPCR, measured: ACTA2		concentration not given, together with: TGF-β1		mRNA level	decreased
O=C(N/N=C/c1ccc(Sc2ncccn2)o1)c1cccc(F)c1	D458 medulloblastoma	cell growth				GI50	62 µM
CCN1CCN(c2ccc(Nc3ncc4c(n3)N(C)C(=O)N(c3cc(NC(=O)c5cccc(C(F)(F)F)c5)ccc3C)C4)cc2)CC1	Huh-7 (FGFR4 overexpressing)	cell proliferation, CellTiter-Glo		72 h		GI50	0.025 ± 0.02 µM
COC(=O)[C@@H]1C(C=Nc2nccs2)=Cc2cc3c(cc2[C@H]1c1cc(OC)c(OC)c(OC)c1)OCO3	Leishmania infantum		promastigote, iRFP			EC50	51.6 ± 1.8 µM
CCCCCCCCCCCCCC[C@@H](O)[C@@H](O)[C@H](CO[C@H]1O[C@H](CO)[C@H](O)[C@H](O)[C@H]1O)NC(=O)CCCCCCCc1ccc(-c2ccccc2)cc1	human Vα24+ NKT cells	agonist, ELISA		10 ng/mL, 24 h, unit not given, together with: CD1d-transfected HeLa cells	reference: α-GalCer	IFN-γ secretion	0.17 ± 0.003
COc1cc([C@@H]2c3cc4c(cc3C=C(C=O)[C@H]2C(=O)OCCCn2cnc3c(Cl)ncnc32)OCO4)cc(OC)c1OC	Leishmania infantum		promastigote, iRFP			EC50	> 100 µM
CCOc1ccccc1Nc1nnc(SCC(=O)Nc2cc(F)ccc2F)s1	A549 spheroids with human PBMCs			25 µM, 48 h, E:T 5:1, together with: anti-CD3 0.3 µg/mL		IFN-γ level	18 ± 3 pg/mL
C=CC(=O)Nc1cccc(N(C(=O)OCc2ccc(F)cc2)c2ccnc(Nc3ccn(C)n3)n2)c1	Ba/F3 wild-type EGFR	cell growth				EC50	0.021 ± 0.0042 µM
C=CC(=O)N1CCC(c2cc(Nc3cc4n(n3)CCOC4)c3ncnn3c2)C1 (single isomer, unassigned)	TMD8	calcium flux, FLIPR		2 h preincubation, together with: anti-IgM		maximum inhibition	8.9%

Repeated from above:
Compound	tested on	assay	test system	conditions	how to read	measurement	value
O=C(N/N=C/c1ccc(Sc2ncccn2)o1)c1cccc(F)c1	D458 medulloblastoma	cell growth				GI50	62 µM
Nc1ccc2cc(N)ncc2c1	LX-2	qPCR, measured: ACTA2		concentration not given, together with: TGF-β1		mRNA level	decreased
